Measured values from different studies.
Every numbered part comes from another study and shows a few of its results, in no order.
Chain of UniProt P48736 (whole entry, looked up): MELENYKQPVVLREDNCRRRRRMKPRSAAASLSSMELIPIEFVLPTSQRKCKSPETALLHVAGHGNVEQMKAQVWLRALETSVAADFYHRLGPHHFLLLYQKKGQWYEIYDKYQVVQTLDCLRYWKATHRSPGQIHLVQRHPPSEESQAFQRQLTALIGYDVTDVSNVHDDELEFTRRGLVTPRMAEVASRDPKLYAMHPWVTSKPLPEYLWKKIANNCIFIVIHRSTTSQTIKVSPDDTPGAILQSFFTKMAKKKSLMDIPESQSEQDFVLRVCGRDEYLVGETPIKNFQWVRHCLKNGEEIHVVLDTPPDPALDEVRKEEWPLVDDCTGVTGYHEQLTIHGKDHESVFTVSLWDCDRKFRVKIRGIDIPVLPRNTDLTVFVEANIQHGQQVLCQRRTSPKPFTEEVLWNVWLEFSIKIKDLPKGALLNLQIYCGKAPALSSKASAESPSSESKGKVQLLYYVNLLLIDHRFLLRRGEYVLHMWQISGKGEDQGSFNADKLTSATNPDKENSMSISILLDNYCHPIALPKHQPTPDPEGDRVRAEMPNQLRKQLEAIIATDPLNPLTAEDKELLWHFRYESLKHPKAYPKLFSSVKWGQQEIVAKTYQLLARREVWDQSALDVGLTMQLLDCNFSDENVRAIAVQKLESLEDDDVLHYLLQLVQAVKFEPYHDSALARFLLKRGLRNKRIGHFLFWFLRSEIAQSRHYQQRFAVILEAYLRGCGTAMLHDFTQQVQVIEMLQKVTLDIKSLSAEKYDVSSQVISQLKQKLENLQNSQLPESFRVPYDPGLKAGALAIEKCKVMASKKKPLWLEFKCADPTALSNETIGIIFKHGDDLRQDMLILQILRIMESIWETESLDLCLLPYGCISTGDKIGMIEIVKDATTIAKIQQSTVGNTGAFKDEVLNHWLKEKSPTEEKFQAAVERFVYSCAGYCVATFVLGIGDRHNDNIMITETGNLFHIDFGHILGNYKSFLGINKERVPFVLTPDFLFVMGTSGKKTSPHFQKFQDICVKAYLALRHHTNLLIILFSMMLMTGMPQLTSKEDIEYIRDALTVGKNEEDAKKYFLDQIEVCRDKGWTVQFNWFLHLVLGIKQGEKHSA
Chain of UniProt Q15139 (whole entry, looked up): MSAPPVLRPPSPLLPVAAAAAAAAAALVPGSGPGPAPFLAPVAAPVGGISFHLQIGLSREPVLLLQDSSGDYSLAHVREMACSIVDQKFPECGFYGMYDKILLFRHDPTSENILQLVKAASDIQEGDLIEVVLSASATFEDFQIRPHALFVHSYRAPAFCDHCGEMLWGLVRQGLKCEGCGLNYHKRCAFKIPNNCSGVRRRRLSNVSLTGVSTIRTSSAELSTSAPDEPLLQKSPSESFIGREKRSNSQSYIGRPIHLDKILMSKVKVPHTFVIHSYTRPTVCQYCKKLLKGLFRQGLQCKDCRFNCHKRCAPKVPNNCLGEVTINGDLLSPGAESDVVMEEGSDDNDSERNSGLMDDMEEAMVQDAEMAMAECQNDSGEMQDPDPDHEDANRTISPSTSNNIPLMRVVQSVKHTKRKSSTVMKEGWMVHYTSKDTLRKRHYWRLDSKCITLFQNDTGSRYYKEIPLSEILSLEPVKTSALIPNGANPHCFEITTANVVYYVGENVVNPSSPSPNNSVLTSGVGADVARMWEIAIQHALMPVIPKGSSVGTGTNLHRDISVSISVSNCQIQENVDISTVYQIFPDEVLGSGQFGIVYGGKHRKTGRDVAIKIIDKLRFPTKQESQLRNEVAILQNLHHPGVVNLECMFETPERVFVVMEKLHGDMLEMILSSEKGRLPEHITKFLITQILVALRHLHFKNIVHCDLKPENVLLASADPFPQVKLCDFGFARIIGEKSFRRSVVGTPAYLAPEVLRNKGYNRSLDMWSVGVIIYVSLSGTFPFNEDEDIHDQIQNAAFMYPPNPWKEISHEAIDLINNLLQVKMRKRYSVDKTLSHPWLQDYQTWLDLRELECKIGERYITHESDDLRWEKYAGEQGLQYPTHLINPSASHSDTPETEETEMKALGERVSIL
Chain of UniProt P06239 (whole entry, looked up): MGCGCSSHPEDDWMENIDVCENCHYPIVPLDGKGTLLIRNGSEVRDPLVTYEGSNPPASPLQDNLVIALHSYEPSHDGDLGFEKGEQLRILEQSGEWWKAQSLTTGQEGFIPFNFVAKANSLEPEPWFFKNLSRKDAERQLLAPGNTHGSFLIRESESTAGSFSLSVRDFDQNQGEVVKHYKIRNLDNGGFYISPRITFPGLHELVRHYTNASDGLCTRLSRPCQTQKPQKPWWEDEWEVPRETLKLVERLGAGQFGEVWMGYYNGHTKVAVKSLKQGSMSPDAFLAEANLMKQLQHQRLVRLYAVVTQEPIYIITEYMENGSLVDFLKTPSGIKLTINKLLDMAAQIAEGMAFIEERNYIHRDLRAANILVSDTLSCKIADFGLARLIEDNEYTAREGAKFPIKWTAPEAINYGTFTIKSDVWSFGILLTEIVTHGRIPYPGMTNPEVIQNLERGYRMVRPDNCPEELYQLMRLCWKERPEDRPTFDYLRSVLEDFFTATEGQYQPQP
Chain of UniProt Q9BVS4 (whole entry, looked up): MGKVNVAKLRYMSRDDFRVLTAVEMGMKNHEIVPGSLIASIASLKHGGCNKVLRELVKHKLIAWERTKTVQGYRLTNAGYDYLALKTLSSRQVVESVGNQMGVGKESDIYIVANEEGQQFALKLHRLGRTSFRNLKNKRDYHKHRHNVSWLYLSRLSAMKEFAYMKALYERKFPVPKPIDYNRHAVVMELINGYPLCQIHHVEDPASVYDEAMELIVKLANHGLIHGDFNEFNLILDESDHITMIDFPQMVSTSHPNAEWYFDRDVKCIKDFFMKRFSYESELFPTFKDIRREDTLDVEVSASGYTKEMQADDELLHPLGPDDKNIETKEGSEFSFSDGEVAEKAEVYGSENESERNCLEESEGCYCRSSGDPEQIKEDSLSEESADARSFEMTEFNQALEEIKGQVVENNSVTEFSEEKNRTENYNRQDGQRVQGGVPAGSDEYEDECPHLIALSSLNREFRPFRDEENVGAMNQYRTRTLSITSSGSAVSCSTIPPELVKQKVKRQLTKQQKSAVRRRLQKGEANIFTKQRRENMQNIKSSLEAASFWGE
Chain of UniProt O75582 (whole entry, looked up): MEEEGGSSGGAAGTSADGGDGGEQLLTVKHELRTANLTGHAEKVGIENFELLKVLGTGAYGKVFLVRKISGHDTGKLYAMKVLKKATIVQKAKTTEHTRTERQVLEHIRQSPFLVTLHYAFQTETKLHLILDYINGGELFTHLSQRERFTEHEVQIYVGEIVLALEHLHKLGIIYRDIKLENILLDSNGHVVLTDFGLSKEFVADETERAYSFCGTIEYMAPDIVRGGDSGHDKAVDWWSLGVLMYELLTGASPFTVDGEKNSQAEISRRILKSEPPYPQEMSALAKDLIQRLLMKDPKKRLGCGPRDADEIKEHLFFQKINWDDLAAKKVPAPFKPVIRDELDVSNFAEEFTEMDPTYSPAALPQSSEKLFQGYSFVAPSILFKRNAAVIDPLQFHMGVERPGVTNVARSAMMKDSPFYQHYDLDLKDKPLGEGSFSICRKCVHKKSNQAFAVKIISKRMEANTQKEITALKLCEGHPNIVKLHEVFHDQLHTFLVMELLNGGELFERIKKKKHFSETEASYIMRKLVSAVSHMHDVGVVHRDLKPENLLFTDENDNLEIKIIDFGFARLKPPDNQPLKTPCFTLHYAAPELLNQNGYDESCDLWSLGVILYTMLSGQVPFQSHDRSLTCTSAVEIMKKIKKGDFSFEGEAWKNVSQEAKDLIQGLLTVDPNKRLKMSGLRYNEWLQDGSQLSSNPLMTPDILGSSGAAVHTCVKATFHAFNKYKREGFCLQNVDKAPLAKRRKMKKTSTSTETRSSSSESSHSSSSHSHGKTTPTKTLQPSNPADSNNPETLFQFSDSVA

Study 1
SMILES: COc1cc(C(=O)N2CCC(N3CCN(C)CC3)CC2)ccc1Nc1ncc2c(n1)N(C)c1ccccc1C(=O)N2C
It gave greater than 10 µM for EC50 (Ribosomal protein S6 kinase alpha-5 (RPS6KA5, Homo sapiens, UniProt O75582); kinase–CDC37 interaction; kinome plate 3@B12).
Eukaryotic translation initiation factor 2-alpha kinase 1 (EIF2AK1, Homo sapiens, UniProt Q9BQI3); kinase–CDC37 interaction; kinome plate 3@F10 — EC50: greater than 10 µM.
Death-associated protein kinase 1 (DAPK1, Homo sapiens, UniProt P53355); kinase–CDC37 interaction; kinome plate 3@F05 — EC50: greater than 10 µM.
Tyrosine-protein kinase ABL1 (ABL1, Homo sapiens, UniProt P00519, E316D); kinase-HSP90-CDC37 interaction, LUMIER; human cells — EC50: greater than 10 µM.

Study 2
SMILES: CN(c1ccnc(CNc2nc(Nc3ccc4c(c3)CC(=O)N4)ncc2C(F)(F)F)n1)S(C)(=O)=O
Observed: cell-free assay
Method: competition with immobilised ligand
Concentration: 1 µM
Serine/threonine-protein kinase tousled-like 1 (TLK1, Homo sapiens, UniProt Q9UKI8) — remaining binding: 79%.
The remaining binding was 81% (Serine/threonine-protein kinase RIO2 (RIOK2, Homo sapiens, UniProt Q9BVS4)).
The remaining binding was 11% (Tyrosine-protein kinase ABL1, phosphorylated (ABL1, Homo sapiens, UniProt P00519, T315I)).
Tyrosine-protein kinase receptor UFO (AXL, Homo sapiens, UniProt P30530) — remaining binding: 21%.
For Tyrosine-protein kinase Lck (LCK, Homo sapiens, UniProt P06239): remaining binding read 46%.
The remaining binding was 96% (Ephrin type-B receptor 4 (EPHB4, Homo sapiens, UniProt P54760)).
The remaining binding was 100% (Phosphatidylinositol 4,5-bisphosphate 3-kinase catalytic subunit gamma isoform (PIK3CG, Homo sapiens, UniProt P48736)).
Serine/threonine-protein kinase PAK 6 (PAK6, Homo sapiens, UniProt Q9NQU5) — remaining binding: 71%.
Serine/threonine-protein kinase D1 (PRKD1, Homo sapiens, UniProt Q15139) — remaining binding: 100%.
It gave 52% for remaining binding (MAP/microtubule affinity-regulating kinase 3 (MARK3, Homo sapiens, UniProt P27448)).
Phosphorylase b kinase gamma catalytic chain, liver/testis isoform (PHKG2, Homo sapiens, UniProt P15735) — remaining binding: 63%.

Study 3
Target: Casein kinase I isoform delta (CSNK1D, Homo sapiens, UniProt P48730)
Chain of UniProt P48730 (whole entry, looked up): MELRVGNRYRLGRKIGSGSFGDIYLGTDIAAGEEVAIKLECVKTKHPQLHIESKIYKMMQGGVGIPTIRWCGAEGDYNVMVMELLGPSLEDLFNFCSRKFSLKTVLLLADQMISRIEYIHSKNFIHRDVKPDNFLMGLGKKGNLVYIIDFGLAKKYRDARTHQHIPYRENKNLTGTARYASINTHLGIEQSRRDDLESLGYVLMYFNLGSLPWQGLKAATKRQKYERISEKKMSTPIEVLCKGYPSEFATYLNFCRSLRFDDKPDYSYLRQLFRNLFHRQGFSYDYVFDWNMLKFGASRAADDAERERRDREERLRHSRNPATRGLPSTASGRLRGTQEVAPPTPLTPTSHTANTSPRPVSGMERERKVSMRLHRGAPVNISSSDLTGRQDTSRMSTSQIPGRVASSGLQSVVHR
Observed: enzyme activity
Mode: inhibitor
Concentration: 0.5 µM
Baseline: control
Cc1ccc(Nc2nccc(N(C)c3ccc4c(C)n(C)nc4c3)n2)cc1S(N)(=O)=O gave a remaining activity of 95.4%.
Oc1ccc(-c2nc(-c3ccncc3)c(-c3ccc(F)cc3)[nH]2)cc1 has a remaining activity of 16.8%.
For COc1cc2nccc(Oc3ccc(NC(=S)NC(=O)c4ccccc4C)cc3)c2cc1OC, the remaining activity was 212%.
O=c1c2ccccc2[nH]c(=S)n1CCN1CCC(=C(c2ccc(F)cc2)c2ccc(F)cc2)CC1 has a remaining activity of 100%.
The remaining activity of COc1cc2ncnc(Nc3ccc(Oc4ccccc4)cc3)c2cc1OC is reported as 106%.
For Nc1ncnc2n[nH]c(Nc3ccc(F)cc3)c12, the remaining activity was 67.7%.
For Nc1ccc2ncnc(NCCc3ccc(Oc4ccccc4)cc3)c2c1, the remaining activity was 100%.
Cc1ccc(NC(=O)c2ccc(CN3CCN(C)CC3)cc2)cc1Nc1nc(-c2cccnc2)cs1 has a remaining activity of 92.8%.
The remaining activity of CNC(=O)c1cc(Oc2ccc(NC(=O)Nc3ccc(Cl)c(C(F)(F)F)c3)cc2)ccn1 is reported as 103%.
With CN(C)c1ccc(C=C2C(=O)Nc3ccccc32)cc1 the remaining activity was 69%.
O=C1NC(=O)C(c2cn(CCCn3ccnc3)c3ccccc23)=C1Nc1ccccc1 gave a remaining activity of 102%.
The remaining activity of O=C(O)c1ccc2c3c1cccc3c(=O)n1c3ccccc3nc21 is reported as 101%.
For OCC(O)CCON=C1C(c2c(O)[nH]c3ccccc23)=Nc2ccccc21 (stereo not drawn), the remaining activity was 52.9%.
Nc1[nH]nc2nc3ccccc3nc12 has a remaining activity of 94.2%.
COc1ccc(OC)c2c(=S)c3ccccc3[nH]c12 gave a remaining activity of 101%.

Study 4
Target: Beta-1 adrenergic receptor (ADRB1, Homo sapiens, UniProt P08588)
Chain of UniProt P08588 (whole entry, looked up): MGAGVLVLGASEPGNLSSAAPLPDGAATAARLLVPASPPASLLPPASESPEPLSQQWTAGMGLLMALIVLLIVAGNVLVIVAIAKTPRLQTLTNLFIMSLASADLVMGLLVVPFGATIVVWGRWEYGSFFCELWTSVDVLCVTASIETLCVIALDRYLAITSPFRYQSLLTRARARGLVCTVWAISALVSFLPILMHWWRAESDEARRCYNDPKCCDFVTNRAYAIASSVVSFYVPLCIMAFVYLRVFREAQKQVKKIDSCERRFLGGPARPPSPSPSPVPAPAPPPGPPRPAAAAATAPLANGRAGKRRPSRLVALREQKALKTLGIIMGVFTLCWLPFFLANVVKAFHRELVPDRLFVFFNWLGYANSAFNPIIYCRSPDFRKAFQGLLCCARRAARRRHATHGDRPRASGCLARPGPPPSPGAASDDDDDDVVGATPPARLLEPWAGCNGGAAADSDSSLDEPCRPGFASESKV
Mode: antagonist
For COc1ccccc1N1CCN(CC[C@@H]2CC[C@H](O)[C@@H](C(=O)NC(C)C)O2)CC1, the IC50 was no less than 100 µM.
CN(C)c1cccc(-c2cc(N3CCOCC3=O)c3cncn3c2)c1 gave an IC50 of no less than 100 µM.
CC(C)(CO)NCC(O)c1ccccc1 (stereo not drawn) has an IC50 of no less than 100 µM.
COc1ccc(CC(C)(C)NC[C@H](O)c2cc(O)cc3c2OCC(=O)N3)cc1 has an IC50 of no less than 100 µM.
COc1ccccc1OCCNCC(O)CCOc1cccc2[nH]c3ccccc3c12 (stereo not drawn) has an IC50 of 25.1 µM.
CCOc1nccn2c(-c3ccc(CNCC(O)CO)cc3)cnc12 (stereo not drawn) has an IC50 of no less than 100 µM.
With Cn1c(C(O)C(O)c2ccccc2)nc2ccccc21 (stereo not drawn) the IC50 was no less than 100 µM.
COc1cc([S+](=O)([O-])N2CCN(c3ccccc3OC)CC2)c(C)cc1C has an IC50 of no less than 100 µM.
For Cc1ccccc1-c1n[nH]c2ncc(-c3ccccc3C#N)nc12, the IC50 was no less than 100 µM.

Excerpt of the above (study 3):
For Nc1ncnc2n[nH]c(Nc3ccc(F)cc3)c12, the remaining activity was 67.7%.
Cc1ccc(NC(=O)c2ccc(CN3CCN(C)CC3)cc2)cc1Nc1nc(-c2cccnc2)cs1 has a remaining activity of 92.8%.
